{"data": "Results from different studies", "note": "Parts stem from different laboratories: compare values within a part only. Values joined by “and” are separate records of one study, mostly repeats; a detail may differ."}
{"data": "Block 1", "target": "Interferon regulatory factor 3, full length, phosphomimetic (IRF3, Homo sapiens, UniProt Q14653, residues 1-427, S386D/S396D/S398D/S402D/T404D/S405D)", "technique": "protein-binding microarray", "form": "double-stranded DNA, one strand shown", "medium": "in vitro", "tested at": "2540 nM top", "setting": "60-bp whole probe", "added": "salmon DNA 0.4 mg/ml", "relative to": "random background probes", "direction": "higher = stronger binding", "constant ends, left off below": "GCCTAGCAC … GTCTTGATTCGCTTGACGCTGCTG", "Residues (chain)": "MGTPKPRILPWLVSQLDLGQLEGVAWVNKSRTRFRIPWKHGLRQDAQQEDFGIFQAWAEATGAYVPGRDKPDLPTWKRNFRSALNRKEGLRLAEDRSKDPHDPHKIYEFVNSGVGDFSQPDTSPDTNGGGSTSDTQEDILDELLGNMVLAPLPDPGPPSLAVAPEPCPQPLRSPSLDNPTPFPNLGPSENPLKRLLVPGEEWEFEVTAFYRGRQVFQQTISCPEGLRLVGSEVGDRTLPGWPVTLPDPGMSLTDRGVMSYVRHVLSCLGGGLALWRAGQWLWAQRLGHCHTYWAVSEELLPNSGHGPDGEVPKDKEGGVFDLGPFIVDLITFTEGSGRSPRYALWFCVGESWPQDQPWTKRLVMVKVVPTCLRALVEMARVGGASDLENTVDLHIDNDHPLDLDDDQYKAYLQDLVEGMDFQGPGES"}
{"Oligonucleotide": "TCCCCTCTCTTTCCAACTCTGTGCTAG", "fitted relative affinity [z-score]": 2.23}
{"Oligonucleotide": "GACGTTTTCAGTTCCGAGACGTGCTAG", "fitted relative affinity [z-score]": 3.49}
{"Oligonucleotide": "TTAGGTTTCGGGTTTCGGTAAGTGCTA", "fitted relative affinity [z-score]": 5.98}
{"Oligonucleotide": "CCCTAGTTGTGTCTTGCCATGTGCTAG", "fitted relative affinity [z-score]": 0.448}
{"Oligonucleotide": "TTAGGTATCGGGTATCGTTTAGTGCTA", "fitted relative affinity [z-score]": 1.61}
{"Oligonucleotide": "TTAGGATTCGGACTGGGTTAGTGCTAG", "fitted relative affinity [z-score]": 0.608}
{"Oligonucleotide": "TTATGTATCCTTATCCTTTAGTGCTAG", "fitted relative affinity [z-score]": 5.4}
{"Oligonucleotide": "GACGGTCTCGGTGTCGGGACGTGCTAG", "fitted relative affinity [z-score]": 0.655}
{"data": "Block 2", "target": "RNA binding protein fox-1 homolog 2, RRM domain, GST-SBP tag (RBFOX2, Homo sapiens, UniProt O43251-10, residues 100-194)", "technique": "RNA Bind-n-Seq", "form": "RNA", "medium": "in vitro", "tested at": "365 nM", "setting": "natural RNA segment, single round, ends assumed", "relative to": "no-protein control", "direction": "higher = stronger binding", "Residues (chain)": "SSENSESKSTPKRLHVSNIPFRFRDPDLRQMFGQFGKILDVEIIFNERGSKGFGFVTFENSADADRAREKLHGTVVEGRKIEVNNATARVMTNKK"}
{"Oligonucleotide": "GGGAGUUCUACAGUCCGACGAUCCUUUGAGAUCAGCAGGGGGCUCGGAUCCAGCCCUAAGAGACUUGGGUGGACCCCCAUGAGUCAAUGGAGGGCAGACGGCUCUCCCCCUUAAAGCUGUUCCCUGGGGGAUGUGGAAUUCUCGGGUGCCAA", "RBNS enrichment (R)": 0.498}
{"Oligonucleotide": "GGGAGUUCUACAGUCCGACGAUCUUUGAUUCUACUCUUAUAUGCUGGACUGCAUUCACACAUGGCAUGAAAUAAGUCAGGUUCUUUACAAAUGGUAUUUUGAUAGAUACUGGAUUGUGUUUGUGCCAUAUUUGUGGAAUUCUCGGGUGCCAA", "RBNS enrichment (R)": 0.355}
{"Oligonucleotide": "GGGAGUUCUACAGUCCGACGAUCAGCUUCCGGACUUGGUUGCACCCCCAGCAAGAAAAGAAGCCAAGCAAAGCUUCUAAAGACCGAAGGAAUCUUUCCCUCACCCCCACCCCCUCGCCUUGGUGAUUUCUUGUUGGAAUUCUCGGGUGCCAA", "RBNS enrichment (R)": 0.515}
{"Oligonucleotide": "GGGAGUUCUACAGUCCGACGAUCUGCACUCCCAAACCCCAGCGCAGUGUCCUUUCCCUGCUGCCGACAGGAACCUGGGGCUGAACAGGUUAUCCCUGUCAGGAGCCCUGGACUGGGCUGCAUCUCAGCCCCACUGGAAUUCUCGGGUGCCAA", "RBNS enrichment (R)": 0.234}
{"data": "Block 3", "target": "Replicase polyprotein 1ab, nsp13 helicase (rep, Severe acute respiratory syndrome coronavirus 2, UniProt P0DTD1)", "action": "inhibitor", "tested at": "20 µM"}
{"SMILES": "O=C(NCc1ccccn1)Nc1nnc(-c2ccco2)o1", "inhibition": "-0.32%"}
{"SMILES": "COC1CCN(C(=O)c2cc(Cc3n[nH]c(=O)c4ccccc34)ccc2F)CC1", "inhibition": "12.3%"}
{"SMILES": "Cn1c(=O)[nH]c2ncn(C)c2c1=O", "inhibition": "3.09%"}
{"SMILES": "Clc1ccc(N/N=C(\\c2ccccc2)c2ccccn2)nc1", "inhibition": "4.12%"}
{"SMILES": "CC(C)(F)C[C@H](N[C@@H](c1ccc(-c2ccc(S(C)(=O)=O)cc2)cc1)C(F)(F)F)C(=O)NC1(C#N)CC1", "inhibition": "3%"}
{"SMILES": "S=C(NCc1ccc2c(c1)OCO2)N1CCN(c2ncnc3c2oc2ccccc23)CC1", "inhibition": "-0.5%"}
{"SMILES": "CCC(=O)c1cc(-c2ccc(Cl)cc2)n(-c2ccc(S(N)(=O)=O)cc2)c1C", "inhibition": "-1.42%"}
{"SMILES": "O=C(CCNNC(=O)c1ccncc1)NCc1ccccc1", "inhibition": "13.4%"}
{"SMILES": "O=C(O)Cc1sc(-c2ccccc2)nc1-c1ccc(Cl)cc1", "inhibition": "2.7%"}
{"SMILES": "CC(OC(=O)NCC1(CC(=O)O)CCCCC1)OC(=O)C(C)C (stereo not shown)", "inhibition": "-4.97%"}
{"SMILES": "CN1C(=O)C(Cc2c[nH]c3ccccc23)NC1=S (stereo not shown)", "inhibition": "2.16%"}
{"SMILES": "CC[C@H]1OC(=O)[C@H](C)[C@@H](O[C@H]2C[C@@](C)(OC)[C@@H](O)[C@H](C)O2)[C@H](C)[C@@H](O[C@@H]2O[C@H](C)C[C@H](N(C)C)[C@H]2O)[C@](C)(O)C[C@@H](C)CN(C)[C@H](C)[C@@H](O)[C@]1(C)O", "inhibition": "-1.46%"}
{"SMILES": "CCC(CC)(NC(=O)C(C)C)C(=O)N[C@@H](CCCN=C(N)N)C(=O)NC1(C(=O)NC(c2ccc(F)cc2)c2ccc(F)cc2)CCCC1", "inhibition": "10.4%"}
{"SMILES": "O=C(O)c1cccnc1C(=O)O", "inhibition": "2.59%"}
{"SMILES": "CCOc1cc(N2CCC(O)CC2)ccc1Nc1ncc2c(n1)N(C)c1ccccc1C(=O)N2C", "inhibition": "9.45%"}
{"SMILES": "CN(CCOc1ccc(-c2ccc3c(c2)OCO3)cc1C(C)(C)C)CC(=O)O", "inhibition": "4.66%"}
{"SMILES": "Cc1c(-c2ccnn2C)cc(C(=O)NCc2ccc(S(C)(=O)=O)cn2)c(=O)n1-c1cccc(C(F)(F)F)c1", "inhibition": "-0.97%"}
{"SMILES": "Cc1ccc(S(=O)(=O)NC(=O)NN2CC3CCC[C@@H]3C2)cc1 (stereo in doubt)", "inhibition": "-0.62%"}
{"SMILES": "C=CC(=O)Nc1cccc(Oc2nc(Nc3ccc(N4CCN(C)CC4)cc3)ncc2Cl)c1", "inhibition": "27.3%"}
{"SMILES": "CCCCOc1ccc(C(=O)CCN2CCCCC2)cc1", "inhibition": "23.2%"}
{"SMILES": "C[C@@H]1O[C@@H](O[C@H]2[C@H](Oc3cc(O)c4c(c3)O[C@H](c3ccc(O)cc3)CC4=O)O[C@H](CO)[C@@H](O)[C@@H]2O)[C@H](O)[C@H](O)[C@H]1O", "inhibition": "0.02%"}
{"SMILES": "CN(C)CCCN1c2ccccc2CCc2ccccc21", "inhibition": "2.88%"}
{"data": "Block 4", "target": "Histone acetyltransferase KAT6A, winged helix 2, GST fusion (KAT6A, Homo sapiens, UniProt Q92794, residues 85-181)", "technique": "protein binding microarray", "form": "double-stranded DNA, one strand shown", "medium": "in vitro", "tested at": "not given", "setting": "8-mer, flanks averaged, mean of 2 arrays, mostly near background", "relative to": "not given", "direction": "higher = stronger binding", "Residues (chain)": "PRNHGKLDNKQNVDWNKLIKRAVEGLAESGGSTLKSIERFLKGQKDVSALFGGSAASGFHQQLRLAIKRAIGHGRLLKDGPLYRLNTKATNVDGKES"}
{"Oligonucleotide": "ACGGTTAT", "E-score": -0.22}
{"Oligonucleotide": "AAAGACTT", "E-score": -0.261}
{"Oligonucleotide": "ACTATAGT", "E-score": -0.0888}
{"Oligonucleotide": "TCCTAGAA", "E-score": -0.119}
{"Oligonucleotide": "CAGGGTAC", "E-score": -0.135}
{"Oligonucleotide": "TCTACCAA", "E-score": 0.0301}
{"Oligonucleotide": "GATAACTA", "E-score": -0.125}
{"Oligonucleotide": "GCGGTTTA", "E-score": -0.0271}
{"data": "Block 5", "organism": "SARS-CoV-2", "effect on": "cytopathic effect", "cells": "Vero E6", "tested at": "10 µM"}
{"SMILES": "COc1cccc(C(=O)CCN[C@@H](C)[C@H](O)c2ccccc2)c1", "inhibition": "1.3%"}
{"SMILES": "COc1ncc(-c2ccc3nccc(-c4ccnnc4)c3c2)cc1NS(=O)(=O)c1ccc(F)cc1F", "inhibition": "-13.5%"}
{"SMILES": "COC(=O)C1=C(C)NC(C)=C(C(=O)OC)C1c1ccccc1[N+](=O)[O-]", "inhibition": "-3.2% and -10.2%"}
{"SMILES": "CCCOc1ccc(CSc2nnc[nH]2)cc1", "inhibition": "-3.7%"}
{"note": "Excerpt of the above (block 1):"}
{"Oligonucleotide": "TCCCCTCTCTTTCCAACTCTGTGCTAG", "fitted relative affinity [z-score]": 2.23}
{"Oligonucleotide": "TTATGTATCCTTATCCTTTAGTGCTAG", "fitted relative affinity [z-score]": 5.4}
{"Oligonucleotide": "GACGGTCTCGGTGTCGGGACGTGCTAG", "fitted relative affinity [z-score]": 0.655}
